Measurements collected from several papers.
Numbered parts are unrelated; each lists some results of a single study. Positions count from the first letter of the parent shown.

Sample 1
Target: CEBPD, bZIP domain (human)
Method: DHFR protein complementation
Matrix: yeast
Notes: single substitutions, most at no-binding floor
Relative to: wild-type JUN-FOS pair
Reading: higher = stronger binding
Quantity: binding fitness
Parent: JUN, bZIP domain (human); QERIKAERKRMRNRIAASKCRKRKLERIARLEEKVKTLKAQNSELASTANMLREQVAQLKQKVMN; partner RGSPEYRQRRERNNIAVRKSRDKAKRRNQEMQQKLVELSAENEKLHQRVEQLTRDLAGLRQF
R53W: -1.4 natural log
E32S: -1.37 natural log
L52N: -1.36 natural log
L52C: -1.59 natural log
V35M: -1.45 natural log
A46Y: -1.48 natural log
S43P: -1.46 natural log
R53M: -1.32 natural log
K39I: -1.35 natural log
L59H: -1.4 natural log
V56C: -1.39 natural log
V35I: -1.17 natural log
E33L: -1.42 natural log
A46L: -1.34 natural log
T48E: -1.41 natural log
S47F: -1.39 natural log
E44P: -1.46 natural log

Sample 2
Target: Centromere-binding protein 1, full length, N-terminal tag (CBF1, Saccharomyces cerevisiae, UniProt P17106, residues 1-351)
Chain of UniProt P17106 (whole entry, looked up): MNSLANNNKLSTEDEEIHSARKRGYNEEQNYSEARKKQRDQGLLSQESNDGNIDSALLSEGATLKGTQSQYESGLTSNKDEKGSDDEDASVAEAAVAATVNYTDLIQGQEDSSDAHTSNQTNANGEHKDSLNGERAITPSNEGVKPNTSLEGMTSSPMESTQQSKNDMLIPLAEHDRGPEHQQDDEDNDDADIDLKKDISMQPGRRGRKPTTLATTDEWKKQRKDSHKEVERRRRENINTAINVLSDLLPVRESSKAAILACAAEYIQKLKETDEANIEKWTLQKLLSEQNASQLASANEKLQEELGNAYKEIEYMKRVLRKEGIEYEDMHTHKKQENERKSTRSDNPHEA
Method: protein-binding microarray
Form: double-stranded DNA, one strand shown
Matrix: in vitro
Tested at: 0.8 µM
Notes: whole 60-bp probe, no competitor
Reading: higher = stronger binding
Quantity: fluorescence intensity
Constant ends, left off below: … GTCTTGATTCGCTTGACGCTGCTG
CTAGACAGAGTTTATCAGCTGTATAGAGTAATCTTC: 591 a.u.
GAATGGATTTTTCAAGGTGACCCGCACTATGAGTAG: 529 a.u.
GAACCAAGCCATGGTCATGTGATTTCCATGTGCTAG: 9610 a.u.
CTATCGTGTCCCAGCCGCACGCCACATCCACCATTC: 515 a.u.
GAAGACACACAATAGCATGTGCGACGAGACACCTAG: 544 a.u.
CTAAAATCCCGTAAACTCATGATGTGAATTTTGTTC: 560 a.u.
CCTAACTACTATATAAACGTGGCATAGCTTCGTACA: 518 a.u.
GAAACATACTAATATCACGATTATTCCTCATTCTAG: 538 a.u.
GAAAAGTGTGGCCTAGTCGTGGGATATGGTGAGTAG: 516 a.u.
GAAATTTTAGTATTGCACGTTCTGTTATTCTTGTAG: 661 a.u.
GAAGTTTTATGTCCCCACGTTACACCGCATGTGTAG: 614 a.u.
CTATCACATAACCACTAGTCACCTGTGCATTCTTTC: 1190 a.u.
CTAGAGGTTTGGAATGATGTCACCGATGTTAGATTC: 534 a.u.
CTAAACTGCTGTAGCCATGTGGGATGATCATGCTTC: 607 a.u.
CTAACTAGAGGCCGTCATGTATAAAATGTGGTATTC: 530 a.u.
CTATTATGGCGCTAACACGTTAAACATTTGTTATTC: 535 a.u.
GAAAGGGAAAGCTCTGATGCACCATTAATCTGGTAG: 528 a.u.
CTATTCGCGTACCACCACCATTACACATGTATATTC: 613 a.u.
CCTAACTACTATAAGCATGTGACATAGCTTCGTACA: 3210 a.u.

Sample 3
Target: RING finger protein unkempt homolog, zinc fingers 1-6, GST-SBP tag (UNK, Homo sapiens, UniProt Q9C0B0, residues 30-357)
Chain of UniProt Q9C0B0 (30-357, looked up): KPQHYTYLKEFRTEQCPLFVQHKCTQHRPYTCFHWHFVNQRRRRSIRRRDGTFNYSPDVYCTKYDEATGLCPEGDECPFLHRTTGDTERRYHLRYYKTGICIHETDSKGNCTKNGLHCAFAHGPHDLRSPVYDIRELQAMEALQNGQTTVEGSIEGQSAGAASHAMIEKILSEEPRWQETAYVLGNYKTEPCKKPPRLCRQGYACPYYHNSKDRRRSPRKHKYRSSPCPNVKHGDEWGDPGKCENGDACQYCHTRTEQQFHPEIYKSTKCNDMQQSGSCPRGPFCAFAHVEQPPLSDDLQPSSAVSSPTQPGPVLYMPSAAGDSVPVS
Method: RNA Bind-n-Seq
Form: RNA
Matrix: in vitro
Tested at: not given
Notes: RNA with constant flanks, human-mouse chimeric sites, ends assumed
Relative to: input RNA pool
Reading: higher = stronger binding
Quantity: bound/input enrichment
Constant ends, left off below: GGGAGUUCUACAGUCCGACGAUC … CAACAGAGGAUUGAGCAUCA
CGGAGCCCUCCUCUCCCACAGGCCCAAGAUAUAACCCACCAGUGCCUUUUGUCUUCCCGUUAGCUUUGUCAAUCACGCCUGUCCUCUGUCCCUCUCACCAAGUGCCCAAAGUGGGGAGGG: 11.1 ratio
CUUAAUGUUAAUAUUUUUGAAUAAAUGUAAAACCAUGGUCUGCUUUUGGUACAACACGCAUUAGCGAAAGGUUAAGUUUUGUUUUCCACUGAAGUACUAUUUAACAUCUCAGAAAAAAAC: 0.505 ratio
UAAGUUAUUUUGUACAGCUUUGUAAAUUCUUAACAUUAAUUUGUAAACAUGUUUAUUUUGUUUGGGUAAUUUGGUUCAUACAUGGCCUAGCUAAGGUAAUGAACAUCUUUUUCAGUAAUU: 0.329 ratio
CUGUGACCACAAGAUCCUACCUGAGUGGCAGCUGAAGUUGACUCCCUCUCCUUGCCUGCCUAGUUUCCCACUGCCCCCCCAUCCCCCAGUGUCGGCUGAGAUGUUGCCAGCAGACAGUUC: 0.389 ratio
GCUCCUCUUCCGCACUCCCCUGCCUGCCACUGGGCUGGGACCAGAAUCCAGCUUUCUUUUAAAACUCUCAGUGUAACUGUAUCCCGUGACAUUUCAUUUUUUUUAAAUAGUGUAUUUUUU: 3.81 ratio
GCUGAAAAUGAAGAAGAGGCAGCUGAUGUCUGGUACAACCUGGGGCACAUAGCUGUGGGAAUAGGAGAUACAAACUUGGCCCACCAAUGCUUCAGGCUGGCCCUGGUCAACAACAACCAC: 0.283 ratio
UAAGUUAUUUUGUACAGUAAGUUAUUUUGUAUAGCUUUUUAUAUUGCCAUGUUUAUUUUGUUUGGGUAAUUUGGUUCAUUAAGUACAUAGCUAAGGUAAUGAACAUCUUUUUCAGUAAUU: 2.15 ratio
UCAGUCUUUUUGUACAGCUUUGUAAAUUCUUAACAUUUUUAUAUUGCCAUGUUUAUUUUGUUUGGGUAAUUUGGUUCAUUAAGUACAUAGCUAAGGUAAUGAACAUCUUUUUCAGUAAUU: 1.06 ratio

Sample 4
Target: ABI1, truncated, D143A, DHFR fusion (Arabidopsis thaliana)
Method: DHFR PCA, deep sequencing
Matrix: yeast
Notes: methotrexate growth selection, single substitutions
With: (+)-ABA 0.39 µM
Relative to: wild-type fitted maximum
Reading: higher = stronger binding
Quantity: relative binding score
Parent: PYL1, truncated, DHFR fusion (Arabidopsis thaliana); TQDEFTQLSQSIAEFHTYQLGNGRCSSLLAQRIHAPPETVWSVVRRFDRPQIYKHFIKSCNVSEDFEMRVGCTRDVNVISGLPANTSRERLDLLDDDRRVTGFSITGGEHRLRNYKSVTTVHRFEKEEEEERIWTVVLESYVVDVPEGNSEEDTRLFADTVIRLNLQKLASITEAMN
S9M: 36.1%
L28E: 1.38%
C72L: -1.35%
L164S: 28%
T1H: 42.4%
M68G: 3.19%
V100K: -5.16%
A13Q: 50.1%
H122D: -2.43%
I57D: -14.2%
A84G: 51.9%
L29Y: 1.64%
P37K: -10.1%
V70K: 1.92%
T1R: 42.2%
R46V: -14.3%
G148R: 0.96%
S80W: 58.4%
A30Q: 22.6%
V142W: -25.5%
S42T: 16.5%
E147R: 7.65%
L169W: 5.04%
S80K: -7.74%
V145C: -14.5%

Sample 5
Target: CCNE1, cyclin fold, Cln2 fusion (human)
Method: yeast growth competition, sequencing
Matrix: yeast
Notes: weak parent motif
Relative to: not given
Reading: higher = stronger binding
Quantity: normalised enrichment score
Parent: LLGL2 docking peptide (human); KSLKKSLRQSFRR
KSLKASLRQSFRR [K5A]: 0.841
KSLKKSLRQAFRR [S10A]: 0.258
KSLKKSARQSFRR [L7A]: -0.319
KSAKKSLRQSFRR [L3A]: 0.417
KSLKKSLRQSFAR [R12A]: 0.528
KSLKKSLRQSFRA [R13A]: 0.826
KSLKKSLAQSFRR [R8A]: 0.825

For quick reference, copied from above (sample 4):
S42T: 16.5%
L29Y: 1.64%
G148R: 0.96%
S80K: -7.74%
